Assay results from different studies.
UniProt C3KDW3, sequence (whole entry, looked up): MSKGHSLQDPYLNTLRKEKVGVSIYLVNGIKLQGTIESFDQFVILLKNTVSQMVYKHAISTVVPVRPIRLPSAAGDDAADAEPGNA

Substance	target or system	test	test system	conditions	how to read	quantity	value
UNC13D D127N/D133N/D941N/D947N	PTK2	co-IP	HEK293	with EGTA, read off a plot	higher = more binding	signal	0.43%
TATATCATGCTATACCTATTCTTTGTGGTATAATTGCAAG (dsDNA)	Aspartate aminotransferase (Streptococcus pneumoniae, UniProt Q8DNN5)	EMSA	double-stranded DNA, one strand shown	two complexes	–	binding	binds
AGCGAAAGTAGCCAGTGGGGTTTCCGACGGCATCGGCA (dsDNA)	rccR (Pseudomonas aeruginosa, UniProt A0A071KWR3)	EMSA	double-stranded DNA, one strand shown	together with: KDPG 8 µM	–	binding	binds
GUAUUCAAAAAGAACAAUUCACAAG (ssRNA)	hfq full length assumed (Pseudomonas fluorescens, UniProt C3KDW3)	EMSA	RNA	–	–	binding	binds

Repeated from above:
Substance	target or system	test	test system	conditions	how to read	quantity	value
GUAUUCAAAAAGAACAAUUCACAAG (ssRNA)	hfq full length assumed (Pseudomonas fluorescens, UniProt C3KDW3)	EMSA	RNA	–	–	binding	binds
